Assay results of several laboratories.
A part holds a random share of what one study measured.

Series 1 — method: RNA Bind-n-Seq; form: RNA; matrix: in vitro; concentration: 1 µM; setting: whole 134-nt RNA, ends assumed; added: 150 mM KCl; baseline: input library; reading: higher = stronger binding
Target: Ras GTPase-activating protein-binding protein 1, RRM domain (G3BP1, Homo sapiens, UniProt Q13283)
Chain of UniProt Q13283 (whole entry, looked up): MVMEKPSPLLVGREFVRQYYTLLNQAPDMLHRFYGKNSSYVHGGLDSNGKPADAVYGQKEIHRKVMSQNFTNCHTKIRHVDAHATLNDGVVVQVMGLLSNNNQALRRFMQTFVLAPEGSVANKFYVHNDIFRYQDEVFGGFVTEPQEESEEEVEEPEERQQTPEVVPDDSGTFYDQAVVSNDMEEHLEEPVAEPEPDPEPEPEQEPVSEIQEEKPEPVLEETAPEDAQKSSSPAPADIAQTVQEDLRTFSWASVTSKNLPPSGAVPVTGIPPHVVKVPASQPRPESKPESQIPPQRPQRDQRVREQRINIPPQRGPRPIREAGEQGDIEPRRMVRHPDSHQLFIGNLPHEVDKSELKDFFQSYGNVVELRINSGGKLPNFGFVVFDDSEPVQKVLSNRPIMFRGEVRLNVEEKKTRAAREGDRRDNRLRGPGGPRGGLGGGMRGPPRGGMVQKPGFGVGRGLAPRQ
Constant ends, left off below: GGGAGUUCUACAGUCCGACGAUC … UGGAAUUCUCGGGUGUCAAGG
Strand	log2 enrichment
GCAGGAAGUAAAAACAAAUGGAAAUGCUUCGGAUAGUGGCAGGGGUGGGGAAAGCUAAGGAAAGGGUGGGAUGGGAGUGGGUAAAGAGUU	1.07
ACCAUGCAGGUGGGCAUCUUUGGGAAGUGGGGCAUGGGGGGGAUAGGGAGGGGGGUAACACUUUGGGAACAGGUGGUCCCAGGUCGUUUC	-0.366
UCCUGUGCUACACAUCGUAUGUACCGAAUCGGCCCCCCCGGGCCCCCCCGGCCCCCCCGGAAAGUAUUAUGUUACGCCGUUCGGAUCUGC	-0.365
AAGUCCUGUGCUACACAUCGUAUGUACCGAAUCGGUUUUUGGUUUUUGGUUUUUGGAAAGUAUUAUGUUACGCCGUUCGGAUCUGCACUU	-0.136
UGGGAGGUGGAUUUUGUUUAUUUUUUUAGCACAUUUCCAGGGGUGGGAAUUUUUUUUUAAUAUGUGUCAUGAAUAAAGUUGUUUUUGAAA	1.89
UGGGAGGUGGAUUUUGUUUAUUUUUUUAGCUCAUUUCCAGGGGUGGGAAUUUUUUUUUAAUAUGUGUCCUGAAUAAAGUUGUUUUUGAAA	1.88
ACCAUGCAGGUGGGCAUCUUUGGGAAGUGGGGCAAGGGGGGGAUAGGGAGGGGGGUAACACUUUGGGAACAGGUGGUCCGAGGUCGUUUC	0.696
GUCCUGUGCUACACAUCGUAUGUACCGAAUCAAACCCAAAUUUUUAAACCCCCCCAAAAAAGUAUUAUGUUACGCCGUUCGGAUCUGCAC	-0.195
UAACUUUAGAGGAGGAUCUGAUGGAUAUGGCAGUGGACGUGGAUUUGGGGAUGGCUAUAAUGGGUAUGGAGGGGGACCUGGAGGUGGCAA	-0.527
UGGGAGGUGGAUUUUGUGUAUUUUUUUAGCUCAUUUCCAGGGGUGGGAAUUUUUUUUUAAUAUGUGUCAUGAAUAAAGUUGUUUUUGAAA	1.97

Series 2 — method: EMSA with sequencing; form: double-stranded DNA, one strand shown; matrix: in vitro; concentration: 10 and 20 nM; baseline: negative control set to 0; reading: higher = stronger binding
Target: Hepatocyte nuclear factor 3-alpha (Foxa1, Mus musculus, UniProt P35582, residues 1-468, full length assumed)
Setting: whole designed probe, mean of two concentrations, ends assumed
Constant ends, left off below: GTGAGCGGTGCCCATTGATGGGGAAC … TTTCACTGGGATCGTGGGGAC
Target sequence (chain): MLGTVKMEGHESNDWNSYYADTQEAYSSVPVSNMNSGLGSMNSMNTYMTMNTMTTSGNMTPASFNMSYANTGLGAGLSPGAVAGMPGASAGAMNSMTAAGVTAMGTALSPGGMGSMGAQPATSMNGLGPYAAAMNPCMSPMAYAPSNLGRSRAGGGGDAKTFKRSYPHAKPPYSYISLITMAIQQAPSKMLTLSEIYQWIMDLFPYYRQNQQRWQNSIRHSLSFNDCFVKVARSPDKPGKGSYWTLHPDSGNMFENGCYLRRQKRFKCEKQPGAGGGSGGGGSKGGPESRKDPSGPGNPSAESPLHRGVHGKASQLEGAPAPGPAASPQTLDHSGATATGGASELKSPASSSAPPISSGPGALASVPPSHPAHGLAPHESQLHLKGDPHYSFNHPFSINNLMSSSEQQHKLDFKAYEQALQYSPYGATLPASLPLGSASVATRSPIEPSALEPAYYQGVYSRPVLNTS
Strand	normalised bound fraction
AGTCATAAAAGCAAAATAATACTGCCAACAAAGAAAATTTTACCTGGAAAAATTTACCTCTAGAATAAGGATAAAAAATAAAGACTTTATAAGGTAATCTAAAGCTGTCAGTCTTTGTCACCATGTGTATAGTTCTATAAGAAATGGTAAAGTAATTTTATACACAGATCTACAATTCTCTACTATAATAATA	0.0607 ratio
GGGTCCCGGGCGGCGGCAGGAATGCAGGAATGCGCACAGGCTGTGGGCGGCCAGGAGGGAGTCCCGGCGCCGGCGGAAGTGTGCCCCAGTCTTTGTGTACCCTGTCCAACACCTCCCCCCGCCAGCGCGGAAGGCCGGGCTACCTGCGCGCCTGGCAGCGCCTGGCAGCCGGCTGGGTGGGGCGCAGGGGAGC	-0.00165 ratio
TGCCCAGCCTCTTTTCTCCATACAAGTTATTTATTGAAGTATGAATGAATGATGATTGGTGTTTCAATGAGCACTCTTATGGGCCACTGCCTAAGTAATCTTCAAGAAGTCTCTGTACCAGATGCAGACTTAGTGGAACAAGTCCAGTTTTGAATGCATGAAGAAAGTGGTTTGGGAGAAGTAAAGTTTAGGC	-0.033 ratio
CAGTCACAGATTTGCATACAATACAATTATGTATTGGCTATTTACAATTTACAGTAGTGGTTCTTCCTCTGAGAAATATAAGTACAAAAGCTAAGTAATCTATGAGGTACTGCCATTTGGGATTTATTATGTGTCATAGCTTAAAGAACTGGCCTTTAGCAAATATTAAACAAATCAACCTGAATAAAATAGT	0.278 ratio
ATCCACGAACCTGGCCCTGTCTGGTAACCACAGTGAACCATCGCAAGATACAGCACTATGTGCCCAGTTGGGCTGGAATAATGACTCACATGTGTCAACACTGGCACATCCTCAGGGACACGGAAGTGTACTTGTTTTTGGAGAGGGACTAGACCTTCATCCTTGAGGTGAAGAAGATTTTCTCTCCAGGGTG	0.108 ratio
AATGATTAGTTTACACATATACATCGCTTTTGAAGGCCCCCAAACACCAGGGGACCATAGAGATCCTTTGGACTTCATGATTCTGGGAGTGTTAGATTGCACTGATACCTGAAGAAATAGATCTTGAGGGCCTACATTCCAACCTCTGGGCTGAAGTACCAACCTCGGGGAGAAGGAAACAAAGATCACAATA	0.0271 ratio
ATGAAGGGCTGCCAGTGTAATTTGAACCTCAAATAAACAACAGATAAAACTGTAGTATAAGTATGTCCCATATAATGCACATCACGATCTTTTTGTTTGCCTAATCTGGCAAAGATATTGACTTAACACACACTAATCTGTTGACAGGTAGGTGAAATATTTGAACTTCTACGTTGCTTCTCTAATCCTGTCC	0.393 ratio
AGGCACAAGGTATGAATCACTAAGAATCTAGCAGCAGCTCTAGAAGCCTCCAAAGATAATTGCACTGGGGGTGGAGTTCCCCAACAGGGGGACGTAAATATGAAAGAACAGTGGATGGCCTAAATCAGTATGTGTCACTCTTTGTAAAGAGCCACAAGTGTTTGACTAGGGAAAAAGGAAAAGAGGCGAGAGT	0.0334 ratio

Series 3 — method: protein-binding microarray; form: hairpin DNA; matrix: in vitro; concentration: not given; baseline: not given; reading: higher = stronger binding
Target: GDNF-inducible zinc finger protein 1, full length (GZF1, Homo sapiens, UniProt Q9H116, residues 1-711)
Setting: whole hairpin DNA, median over replicate spots
Target sequence (chain): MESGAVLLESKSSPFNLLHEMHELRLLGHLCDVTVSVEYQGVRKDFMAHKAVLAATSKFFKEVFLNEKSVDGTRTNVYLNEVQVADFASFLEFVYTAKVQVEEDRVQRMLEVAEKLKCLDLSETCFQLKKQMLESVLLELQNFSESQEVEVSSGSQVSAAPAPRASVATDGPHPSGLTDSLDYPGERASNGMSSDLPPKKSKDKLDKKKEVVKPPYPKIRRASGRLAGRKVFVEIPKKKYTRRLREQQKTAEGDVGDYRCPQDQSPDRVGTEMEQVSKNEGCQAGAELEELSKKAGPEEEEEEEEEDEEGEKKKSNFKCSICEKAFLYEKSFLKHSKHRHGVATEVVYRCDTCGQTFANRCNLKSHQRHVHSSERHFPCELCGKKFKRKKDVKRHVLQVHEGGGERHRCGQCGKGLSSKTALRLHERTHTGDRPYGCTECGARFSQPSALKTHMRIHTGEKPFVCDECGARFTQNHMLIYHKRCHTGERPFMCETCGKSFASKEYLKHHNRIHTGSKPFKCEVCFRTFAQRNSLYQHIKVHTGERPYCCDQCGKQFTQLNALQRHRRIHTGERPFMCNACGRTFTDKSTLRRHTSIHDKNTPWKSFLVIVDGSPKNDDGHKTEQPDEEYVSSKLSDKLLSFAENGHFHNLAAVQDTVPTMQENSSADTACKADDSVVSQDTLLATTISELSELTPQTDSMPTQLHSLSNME
Strand	median fluorescence
GAGGCCCGTACGGTAATGCCTCCTGGCATTACCGTACGGGCCTCACACTC (5mC at 7)	752 a.u.
GAGGCCATTACGGGAATGCCTCCTGGCATTCCCGTAATGGCCTCACACTC (5mC at 31)	490 a.u.
GAGGCCATTACGGTCATGCCTCCTGGCATGACCGTAATGGCCTCACACTC	503 a.u.
GAGGCCACTACGGTAATGCCTCCTGGCATTACCGTAGTGGCCTCACACTC	701 a.u.
GAGGCCACGACGGTAATGCCTCCTGGCATTACCGTCGTGGCCTCACACTC	752 a.u.
GAGGCCCGTACGGTAATGCCTCCTGGCATTACCGTACGGGCCTCACACTC	726 a.u.
GAGGCCATTACGGTAAGGCCTCCTGGCCTTACCGTAATGGCCTCACACTC	572 a.u.
GAGGCCGTTACGGTAATGCCTCCTGGCATTACCGTAACGGCCTCACACTC	743 a.u.
GAGGCCATTACGGTAATGCCTCCTGGCATTACCGTAATGGCCTCACACTC (5mC at 11)	625 a.u.
GAGGCCATTACGGTACGGCCTCCTGGCCGTACCGTAATGGCCTCACACTC (5mC at 16 28)	658 a.u.
GAGGCCATTACGGTCATGCCTCCTGGCATGACCGTAATGGCCTCACACTC (5mC at 15)	514 a.u.
GAGGCCATTACGGTAAAGCCTCCTGGCTTTACCGTAATGGCCTCACACTC	574 a.u.
GAGGCCATTACGATAATGCCTCCTGGCATTATCGTAATGGCCTCACACTC	395 a.u.
GAGGCCATTACGGTAATGCCTCCTGGCATTACCGTAATGGCCTCACACTC (5mC at 11 33)	471 a.u.
GAGGCCAGTACGGTAATGCCTCCTGGCATTACCGTACTGGCCTCACACTC	729 a.u.
GAGGCCATTACGGTCGTGCCTCCTGGCACGACCGTAATGGCCTCACACTC (5mC at 29)	578 a.u.
GAGGCCATTACCGTAATGCCTCCTGGCATTACGGTAATGGCCTCACACTC (5mC at 12 32)	528 a.u.
GAGGCCCGTACGGTAATGCCTCCTGGCATTACCGTACGGGCCTCACACTC (5mC at 37)	720 a.u.

Series 4 — method: protein binding microarray; form: double-stranded DNA, one strand shown; matrix: in vitro; concentration: not given; baseline: not given; reading: higher = stronger binding
Target: Histone acetyltransferase KAT6A, winged helix 1, GST fusion (KAT6A, Homo sapiens, UniProt Q92794, residues 1-85)
Setting: 8-mer, flanks averaged, mean of 2 arrays, mostly near background
Residues (chain): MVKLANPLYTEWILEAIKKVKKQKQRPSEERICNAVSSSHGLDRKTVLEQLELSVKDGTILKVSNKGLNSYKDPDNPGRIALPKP
Strand	E-score
ATTTTGTC	-0.201
AGGGCGAA	0.0112
CACGAAAA	-0.159
AACGTCAT	0.0487
CGTACCAG	-0.0114
AGTAAAAG	-0.153
AAGTGAGT	-0.206
CGGCTCCA	0.245
CAACAAGG	-0.15
CTTAAGCA	0.0451
CATGCAAG	-0.0296
CCATCACA	-0.16
AAAGAGGT	-0.135
GGACTGTA	-0.148
AGTGTAGC	0.0201
CACTATAC	-0.0687
GCCACCTA	-0.0389
ACAATATA	0.121
AACAGAAG	-0.0811
AAACTATT	-0.0323
AAGCGGAC	0.233
CATACACG	-0.147
CTGACTCC	-0.0316
AGACCGAG	-0.0106
CACCGAAA	-0.136

Other studies, line by line
Molecule	target	assay	test system	setting	how to read	measurement	value
PhoQ, residues 284 288 289 292 302 303 STVVAA	PhoP, residues 12 14 15 18 19 LHHYF (Escherichia coli, UniProt P23836)	Sort-seq, item: YFP reporter	E. coli	PhoQ-PhoP variant library, added: 10 µM Mg2+	baseline: high Mg2+ state, higher = stronger signaling	fold induction	42.7

For quick reference, copied from above (series 4):
Strand	E-score
AACGTCAT	0.0487
CGTACCAG	-0.0114
AGTAAAAG	-0.153
